Measurements gathered from unrelated publications.
Numbered parts are unrelated; each lists some results of a single study. Changes are numbered by the printed parent chain.

Set 1 — method: aptamer microarray, sandwich; form: DNA with 2'F-ANA; matrix: in vitro; concentration: 200 nM; added: Cy3 exosite-II aptamer, 400 nM; direction: higher = stronger binding; sequence: GGTTGGTGTGGTTGG
Target: Prothrombin, mature alpha-thrombin (F2, Homo sapiens, UniProt P00734)
Notes: whole 15-mer aptamer, many near background
Modification	mean fluorescence intensity
2'F-ANA at 1 2 5 7 9 12 14	59 a.u.
2'F-ANA at 1 7 8 9 10 12 14	49.3 a.u.
2'F-ANA at 3 5 6 10 12 13 14 15	48.5 a.u.
2'F-ANA at 3 4 5 6 8 11 12 13 14 15	52.6 a.u.
2'F-ANA at 1 3 4 9 11 13 14	60.2 a.u.
2'F-ANA at 5 7 8 10 12 13	50 a.u.
2'F-ANA at 2 4 6 7 9 11 15	186 a.u.
2'F-ANA at 3 4 5 6 7 8 9 10 11 15	50.2 a.u.
2'F-ANA at 2 3 6 7 8 10 12 13	381 a.u.
2'F-ANA at 6 7 11 13 14	159 a.u.
2'F-ANA at 2 3 4 5 7 8 11 12 13 14	50.8 a.u.
2'F-ANA at 11 12 13 15	732 a.u.
2'F-ANA at 1 3 4 5 7 10 11 12 13 14	51.2 a.u.
2'F-ANA at 1 2 5 6 7 9 11 13 14	51.1 a.u.
2'F-ANA at 1 2 3 4 6 7 9 11 12 13	160 a.u.
2'F-ANA at 1 2 3 5 7 9 10 12 13 14	49.5 a.u.
2'F-ANA at 2 7 8 9 10 12	187 a.u.
2'F-ANA at 1 3 4 5 7 9 12 13 14	44.2 a.u.
2'F-ANA at 1 2 3 4 5 6 7 9 10 12 14	50.8 a.u.
2'F-ANA at 2 3 4 6 8 9 12 13 15	524 a.u.
2'F-ANA at 2 3 4 6 7 8 9 10 15	210 a.u.
2'F-ANA at 4 6 7 8 9 11 13	212 a.u.
2'F-ANA at 1 3 6 11 13	223 a.u.
2'F-ANA at 2 3 7 9 10 11 12	419 a.u.
2'F-ANA at 1 2 3 4 5 6 12	134 a.u.

Set 2 — method: protein-binding microarray; form: double-stranded DNA, one strand shown; matrix: in vitro; concentration: not given; direction: higher = stronger binding
Target: Max-binding protein MNT, bHLH-zipper, MAX partner unstated (MNT, Homo sapiens, UniProt Q99583, residues 220-300)
Notes: k-mer, scored over probes, only values ≥0.25
Target sequence (chain): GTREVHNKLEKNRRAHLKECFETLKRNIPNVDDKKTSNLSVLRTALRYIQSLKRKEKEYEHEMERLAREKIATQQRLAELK
Sequence	E-score
CACCGTGG	0.254
ATGTGCGA	0.312
AGGTCACG	0.316
GAGCGTGA	0.318
ACGTGGAT	0.433
AGTGGGGA	0.252
AATGGCAT	0.259
TCGTGGCA	0.31
ATGACATG	0.303
ATGCGACA	0.252
CGTGCGAA	0.367
ACATGGAG	0.349
GGCATGGA	0.305
GTGGCAGA	0.261
CAGCATGA	0.322
ACGTCACG	0.292
CACATGTC	0.457
CGTGCGGA	0.343

Set 3 — method: universal PBM; form: double-stranded DNA, one strand shown; matrix: in vitro; concentration: not given; direction: higher = stronger binding
Target: Sal-like protein 4, full length isoform B (SALL4, Homo sapiens, UniProt Q9UJQ4-2, residues 1-616)
Notes: 8-mer, flanks averaged, mean of replicates
Sequence	E-score
GGGGCAGA	-0.138
CCCATGAC	-0.237
ACCGGGCC	-0.337
AGAGAATA	0.156
AATTCAAC	0.159
GCGCCGCA	-0.343
CACGTGTA	0.00821
ACTCCTCG	0.0436
TAAGAGCA	0.0124
CTGGGAAA	0.00794
ATCTCGCC	-0.243
AGGTTGTC	-0.0793
ACTGCGAC	-0.0928
GACATGAC	-0.102
CCAGACTA	-0.0896
CCATGTGC	-0.135
ACTGCAAG	0.045
CGGCACTC	-0.234
GTATTAAA	0.368
AAGAAAAA	0.301
CGCACTCC	-0.201
ATAGTGGG	-0.00939
GCGACCGA	-0.171
ATGTGCGC	-0.0452
ACTACTGC	-0.0533

Set 4 — target: CCNA1, cyclin fold, Cln2 fusion (human); method: yeast growth competition, sequencing; matrix: yeast; notes: weak parent motif; reference: not given; direction: higher = stronger binding
Starting sequence: CDC25A docking peptide (human); PPHRRRLLFACSP; partner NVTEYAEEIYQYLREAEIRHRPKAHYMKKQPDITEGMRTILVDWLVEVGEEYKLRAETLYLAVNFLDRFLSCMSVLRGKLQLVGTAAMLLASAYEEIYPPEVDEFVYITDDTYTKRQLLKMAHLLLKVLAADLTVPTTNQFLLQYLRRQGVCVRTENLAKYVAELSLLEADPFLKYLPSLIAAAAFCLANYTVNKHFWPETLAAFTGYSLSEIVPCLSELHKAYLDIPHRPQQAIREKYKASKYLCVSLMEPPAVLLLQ
Change	normalised enrichment score
PPHRHRLLFACSP [R5H]	0.301
PPHRRRLLDACSP [F9D]	0.0507
PPHRRQLLFACSP [R6Q]	0.456
PPPRRRLLFACSP [H3P]	-0.0294
PPHRFRLLFACSP [R5F]	0.101
PPHRRRLLFTCSP [A10T]	0.355
FPHRRRLLFACSP [P1F]	0.425
PPHIRRLLFACSP [R4I]	0.375
PPHRRRKLFACSP [L7K]	0.484
PPHRRRLLFADSP [C11D]	0.103
PPHRRRLLFYCSP [A10Y]	0.374
PPHRRRLHFACSP [L8H]	0.231
PPVRRRLLFACSP [H3V]	0.453
PPHRKRLLFACSP [R5K]	0.415
PPHRRRLLFACCP [S12C]	0.323
PPARRRLLFACSP [H3A]	0.192
HPHRRRLLFACSP [P1H]	0.287
PPHQRRLLFACSP [R4Q]	0.407
PPHRRRLLFACGP [S12G]	0.474

Set 5 — method: protein binding microarray; form: double-stranded DNA, one strand shown; matrix: in vitro; concentration: not given; reference: not given; direction: higher = stronger binding
Target: Histone acetyltransferase KAT6A, both winged helices, GST fusion (KAT6A, Homo sapiens, UniProt Q92794, residues 1-181)
Notes: 8-mer, flanks averaged, mean of 2 arrays, mostly near background
Residues (chain): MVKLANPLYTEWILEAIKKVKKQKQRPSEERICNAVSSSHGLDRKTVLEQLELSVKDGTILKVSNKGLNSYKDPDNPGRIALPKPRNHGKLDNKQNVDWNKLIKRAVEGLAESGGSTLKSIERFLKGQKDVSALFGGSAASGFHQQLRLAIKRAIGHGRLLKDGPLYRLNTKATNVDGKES
Sequence	E-score
ATGGTGGG	-0.207
AAGGAGCA	-0.169
GGTGAATA	-0.0471
GATCTTAC	-0.0354
CGACGTGA	0.00695
AGTTGCTA	-0.0897
ACCTTGAC	0.0138
ACCCCTTG	-0.281
CGCTAGGA	-0.0488
CAACGAGA	-0.104
ATATCCCA	0.0236
GAGTGTCC	-0.0699
GTCCCGAC	0.177
TAACTCAA	-0.122
GGAGAAAA	-0.0915
ACGTGGGC	-0.0134
ACCAAGGC	0.0522
GACTACTA	0.0174
AAATTTCC	-0.151
CACCCGCC	0.192
GGAGCGCC	0.0978
ACAGAGCC	0.0188
ACCGCACA	0.109

Set 6 — method: protein-binding microarray; form: double-stranded DNA, one strand shown; matrix: in vitro; concentration: 940 nM top; notes: 60-bp whole probe; added: salmon DNA 0.4 mg/ml; reference: random background probes; direction: higher = stronger binding; shared flanks, not repeated: GCCTAGCAC … GTCTTGATTCGCTTGACGCTGCTG
Target: Interferon regulatory factor 5, full length, phosphomimetic (IRF5, Homo sapiens, UniProt Q13568-2, residues 1-514, S451D/S453D/S456D/S462D)
Sequence	fitted relative affinity [z-score]
TTAGATATCCGACTGGATTAGTGCTAG	-0.322
GACGGACTGCGTTTCGGGACGTGCTAG	0.487
TTAGGACTGGGTCTTGGTTAGTGCTAG	-0.336
TTAGATTTCGGGACTGAATTAGTGCTA	0.375
TCAAATGACCTTCTCAGACTGTGCTAG	-0.191
TCATCTTTCCCTGCCCCATGGTGCTAG	1.33
TTAGGTCTCGGACCGGGTTAGTGCTAG	0.764
GACGGTTTCGGGACTGGGGGCGTGCTA	8.93
TTAGGTTCCGGTTTCGATTAGTGCTAG	7.94
GACGCACTGGGGTTTCGAGACGTGCTA	2.02
TCATTTTTCACCTGCACACTGTGCTAG	1.39
AGGATCCAGCCTGCAACCTCGTGCTAG	-0.709
GACGATTTCGACACTGGGGACGTGCTA	0.397
GACGGTTCCGGTTTCGGGATGTGCTAG	5.31
TTAGGAATGCTTATCCTTTAGTGCTAG	-0.441
CATTTTCTGAATGTCCTCCTGTGCTAG	0.609
TCAATTTTTTTTTTCTAACTGTGCTAG	1.8
GACGGACTGTACTTTCGGGACGTGCTA	0.939
TTAGAACTGAGACTGGTTTAGTGCTAG	-0.225
GACTGTATCGACTTTCGGGACGTGCTA	1.92
ATTTAAGTTTCACTCTGCATGGTGCTA	8.01
GACGGTCTCCTTCCCCTGACGTGCTAG	0.466
GTCGGTATCCTTCTCCTGACGTGCTAG	1.67
GACGGACTGGACTTTCAGGACGTGCTA	-0.412
TTAGATATCGGCTATCGATTAGTGCTA	0.364

Repeated from above (set 6):
Sequence	fitted relative affinity [z-score]
TTAGATATCCGACTGGATTAGTGCTAG	-0.322
GACGGACTGCGTTTCGGGACGTGCTAG	0.487
TTAGGACTGGGTCTTGGTTAGTGCTAG	-0.336
TTAGATTTCGGGACTGAATTAGTGCTA	0.375
TCAAATGACCTTCTCAGACTGTGCTAG	-0.191
TCATCTTTCCCTGCCCCATGGTGCTAG	1.33
TTAGGTCTCGGACCGGGTTAGTGCTAG	0.764
GACGGTTTCGGGACTGGGGGCGTGCTA	8.93
TTAGGTTCCGGTTTCGATTAGTGCTAG	7.94
GACGCACTGGGGTTTCGAGACGTGCTA	2.02
TCATTTTTCACCTGCACACTGTGCTAG	1.39
AGGATCCAGCCTGCAACCTCGTGCTAG	-0.709
GACGATTTCGACACTGGGGACGTGCTA	0.397
GACGGTTCCGGTTTCGGGATGTGCTAG	5.31
TTAGGAATGCTTATCCTTTAGTGCTAG	-0.441
CATTTTCTGAATGTCCTCCTGTGCTAG	0.609
TCAATTTTTTTTTTCTAACTGTGCTAG	1.8
GACGGACTGTACTTTCGGGACGTGCTA	0.939
TTAGAACTGAGACTGGTTTAGTGCTAG	-0.225
GACTGTATCGACTTTCGGGACGTGCTA	1.92
ATTTAAGTTTCACTCTGCATGGTGCTA	8.01
